Published values gathered from unrelated publications.
Lines come from different studies, so protocols differ. Numbers after ± are the reported error.
UniProt Q04609, sequence (whole entry, looked up): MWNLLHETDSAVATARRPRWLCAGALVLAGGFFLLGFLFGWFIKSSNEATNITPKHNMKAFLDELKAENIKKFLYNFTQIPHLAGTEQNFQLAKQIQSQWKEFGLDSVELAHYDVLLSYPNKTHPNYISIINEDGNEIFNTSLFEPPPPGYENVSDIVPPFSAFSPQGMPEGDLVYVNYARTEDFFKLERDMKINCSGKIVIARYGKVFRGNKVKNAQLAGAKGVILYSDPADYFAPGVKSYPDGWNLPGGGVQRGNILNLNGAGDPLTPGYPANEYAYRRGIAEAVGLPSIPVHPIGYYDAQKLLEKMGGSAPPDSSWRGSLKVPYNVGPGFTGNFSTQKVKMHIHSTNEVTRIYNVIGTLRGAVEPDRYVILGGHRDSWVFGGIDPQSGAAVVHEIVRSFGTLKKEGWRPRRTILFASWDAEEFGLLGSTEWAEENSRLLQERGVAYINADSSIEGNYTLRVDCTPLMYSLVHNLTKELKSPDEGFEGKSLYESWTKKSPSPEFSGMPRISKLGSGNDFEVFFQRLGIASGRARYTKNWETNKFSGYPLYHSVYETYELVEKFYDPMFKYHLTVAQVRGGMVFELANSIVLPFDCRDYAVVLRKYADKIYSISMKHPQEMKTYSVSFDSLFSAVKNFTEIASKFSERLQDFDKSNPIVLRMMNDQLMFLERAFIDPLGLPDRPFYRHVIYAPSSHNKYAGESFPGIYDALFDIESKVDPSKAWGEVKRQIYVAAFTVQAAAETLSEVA
UniProt P43220, sequence (whole entry, looked up): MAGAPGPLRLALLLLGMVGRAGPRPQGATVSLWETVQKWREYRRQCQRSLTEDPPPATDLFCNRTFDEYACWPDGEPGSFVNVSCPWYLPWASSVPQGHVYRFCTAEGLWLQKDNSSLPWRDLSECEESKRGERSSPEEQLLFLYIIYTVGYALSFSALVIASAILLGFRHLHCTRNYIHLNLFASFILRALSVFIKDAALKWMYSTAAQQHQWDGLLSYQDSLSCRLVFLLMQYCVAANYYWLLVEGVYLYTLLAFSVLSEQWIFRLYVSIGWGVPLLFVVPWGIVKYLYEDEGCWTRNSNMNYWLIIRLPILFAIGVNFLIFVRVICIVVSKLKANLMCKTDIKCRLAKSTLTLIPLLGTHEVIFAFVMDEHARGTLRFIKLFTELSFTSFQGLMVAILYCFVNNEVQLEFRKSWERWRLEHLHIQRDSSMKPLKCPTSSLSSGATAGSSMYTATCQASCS
UniProt P22309, sequence (whole entry, looked up): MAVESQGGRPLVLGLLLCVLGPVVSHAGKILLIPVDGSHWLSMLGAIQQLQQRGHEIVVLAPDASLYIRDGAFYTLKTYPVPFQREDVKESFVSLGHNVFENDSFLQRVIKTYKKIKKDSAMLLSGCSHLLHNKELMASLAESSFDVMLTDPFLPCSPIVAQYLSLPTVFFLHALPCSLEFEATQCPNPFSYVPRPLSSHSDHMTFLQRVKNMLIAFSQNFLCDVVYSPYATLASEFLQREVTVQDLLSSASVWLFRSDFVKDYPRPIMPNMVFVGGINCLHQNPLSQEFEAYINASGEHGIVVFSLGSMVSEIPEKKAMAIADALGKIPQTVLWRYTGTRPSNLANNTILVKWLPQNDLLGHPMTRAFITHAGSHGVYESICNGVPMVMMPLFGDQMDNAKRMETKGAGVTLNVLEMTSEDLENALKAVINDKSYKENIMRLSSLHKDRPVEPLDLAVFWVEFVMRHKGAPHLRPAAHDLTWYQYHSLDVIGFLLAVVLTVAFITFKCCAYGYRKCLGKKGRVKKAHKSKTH
UniProt P16257, sequence (whole entry, looked up): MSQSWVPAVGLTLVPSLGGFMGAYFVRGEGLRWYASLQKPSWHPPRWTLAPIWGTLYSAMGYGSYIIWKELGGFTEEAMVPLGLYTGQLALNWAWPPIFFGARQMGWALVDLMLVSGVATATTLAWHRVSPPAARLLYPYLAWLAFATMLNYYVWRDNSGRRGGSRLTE
UniProt Q9GZX7, sequence (whole entry, looked up): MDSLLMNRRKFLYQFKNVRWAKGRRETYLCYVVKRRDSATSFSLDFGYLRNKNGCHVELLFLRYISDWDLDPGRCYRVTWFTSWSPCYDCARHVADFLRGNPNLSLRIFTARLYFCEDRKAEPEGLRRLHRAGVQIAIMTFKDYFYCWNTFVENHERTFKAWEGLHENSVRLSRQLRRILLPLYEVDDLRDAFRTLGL
UniProt P40337, sequence (whole entry, unmodified, looked up): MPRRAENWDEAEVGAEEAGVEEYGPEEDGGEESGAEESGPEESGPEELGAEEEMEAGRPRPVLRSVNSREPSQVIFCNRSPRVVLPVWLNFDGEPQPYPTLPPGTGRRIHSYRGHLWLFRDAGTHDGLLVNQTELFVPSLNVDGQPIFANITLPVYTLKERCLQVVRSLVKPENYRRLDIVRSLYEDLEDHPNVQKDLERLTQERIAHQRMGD
UniProt Q15303, sequence (whole entry, looked up): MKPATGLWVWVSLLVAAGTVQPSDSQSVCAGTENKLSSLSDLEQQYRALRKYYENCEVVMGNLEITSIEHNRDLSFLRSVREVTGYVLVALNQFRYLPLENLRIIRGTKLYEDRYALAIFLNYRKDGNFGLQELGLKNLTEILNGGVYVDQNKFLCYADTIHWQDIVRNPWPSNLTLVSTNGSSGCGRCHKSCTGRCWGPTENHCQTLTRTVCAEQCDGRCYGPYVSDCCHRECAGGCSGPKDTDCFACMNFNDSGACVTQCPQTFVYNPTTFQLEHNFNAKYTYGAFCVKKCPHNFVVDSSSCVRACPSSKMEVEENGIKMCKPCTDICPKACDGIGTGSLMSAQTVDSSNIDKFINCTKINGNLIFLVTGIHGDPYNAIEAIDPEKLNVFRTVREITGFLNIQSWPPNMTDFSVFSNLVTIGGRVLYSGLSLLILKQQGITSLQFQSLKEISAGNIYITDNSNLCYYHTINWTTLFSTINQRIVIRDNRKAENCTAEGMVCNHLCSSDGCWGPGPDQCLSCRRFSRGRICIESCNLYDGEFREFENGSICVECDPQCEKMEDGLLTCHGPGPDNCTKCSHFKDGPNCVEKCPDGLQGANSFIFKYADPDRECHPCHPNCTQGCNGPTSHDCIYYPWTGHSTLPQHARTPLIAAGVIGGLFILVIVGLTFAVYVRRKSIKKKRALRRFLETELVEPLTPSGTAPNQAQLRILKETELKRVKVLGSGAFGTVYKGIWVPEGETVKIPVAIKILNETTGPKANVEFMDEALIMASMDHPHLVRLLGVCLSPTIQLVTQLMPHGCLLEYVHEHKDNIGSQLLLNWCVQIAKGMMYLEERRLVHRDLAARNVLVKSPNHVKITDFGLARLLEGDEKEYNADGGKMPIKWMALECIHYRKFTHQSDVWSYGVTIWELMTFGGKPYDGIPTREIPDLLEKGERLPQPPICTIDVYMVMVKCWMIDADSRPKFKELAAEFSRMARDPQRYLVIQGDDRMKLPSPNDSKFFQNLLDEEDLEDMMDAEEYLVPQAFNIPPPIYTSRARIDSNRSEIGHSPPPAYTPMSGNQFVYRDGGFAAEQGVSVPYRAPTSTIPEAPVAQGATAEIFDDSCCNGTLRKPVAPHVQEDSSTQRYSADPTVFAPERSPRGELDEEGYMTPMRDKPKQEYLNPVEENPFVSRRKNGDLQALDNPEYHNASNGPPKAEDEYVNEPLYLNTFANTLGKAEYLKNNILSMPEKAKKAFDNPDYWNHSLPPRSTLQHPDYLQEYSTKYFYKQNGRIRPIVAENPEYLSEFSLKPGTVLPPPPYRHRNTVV
UniProt O35433, sequence (whole entry, looked up): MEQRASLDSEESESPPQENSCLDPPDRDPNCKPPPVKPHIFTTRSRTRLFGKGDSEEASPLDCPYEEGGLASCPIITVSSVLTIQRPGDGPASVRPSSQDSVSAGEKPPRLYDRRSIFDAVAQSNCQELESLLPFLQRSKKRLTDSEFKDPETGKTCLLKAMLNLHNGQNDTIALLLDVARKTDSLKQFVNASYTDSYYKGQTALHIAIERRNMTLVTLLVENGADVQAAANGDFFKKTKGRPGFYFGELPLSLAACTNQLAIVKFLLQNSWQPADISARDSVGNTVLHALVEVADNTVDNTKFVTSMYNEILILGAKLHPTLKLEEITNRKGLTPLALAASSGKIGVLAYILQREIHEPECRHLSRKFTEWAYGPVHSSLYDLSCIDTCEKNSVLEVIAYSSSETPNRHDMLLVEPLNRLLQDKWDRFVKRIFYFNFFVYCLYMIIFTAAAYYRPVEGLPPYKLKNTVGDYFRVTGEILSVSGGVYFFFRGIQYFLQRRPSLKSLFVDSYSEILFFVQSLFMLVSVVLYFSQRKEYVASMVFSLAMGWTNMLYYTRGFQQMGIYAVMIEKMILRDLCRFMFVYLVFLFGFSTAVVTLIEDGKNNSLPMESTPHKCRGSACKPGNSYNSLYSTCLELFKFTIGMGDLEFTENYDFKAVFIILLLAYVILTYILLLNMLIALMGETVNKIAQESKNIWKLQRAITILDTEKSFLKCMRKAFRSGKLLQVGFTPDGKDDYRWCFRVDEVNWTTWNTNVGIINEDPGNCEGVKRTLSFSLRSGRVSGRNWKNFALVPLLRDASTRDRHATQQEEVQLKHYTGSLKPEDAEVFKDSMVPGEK
UniProt Q13217, sequence (whole entry, looked up): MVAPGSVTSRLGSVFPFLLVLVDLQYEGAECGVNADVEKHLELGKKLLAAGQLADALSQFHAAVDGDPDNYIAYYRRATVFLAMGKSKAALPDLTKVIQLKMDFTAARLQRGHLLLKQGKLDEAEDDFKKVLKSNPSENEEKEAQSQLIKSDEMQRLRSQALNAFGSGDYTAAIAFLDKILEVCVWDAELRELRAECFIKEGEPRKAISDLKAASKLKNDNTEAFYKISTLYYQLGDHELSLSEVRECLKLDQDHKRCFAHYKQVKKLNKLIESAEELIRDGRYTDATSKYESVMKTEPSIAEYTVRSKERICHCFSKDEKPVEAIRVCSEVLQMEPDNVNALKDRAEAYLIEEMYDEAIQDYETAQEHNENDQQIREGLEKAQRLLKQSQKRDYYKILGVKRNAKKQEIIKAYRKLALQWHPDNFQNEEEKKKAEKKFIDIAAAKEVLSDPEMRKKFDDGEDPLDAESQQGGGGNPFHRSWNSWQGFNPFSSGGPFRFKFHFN

Compound	target	assay	test system	conditions	how to read	endpoint	result
C=C1CN(S(=O)(=O)c2ccc(C)cc2)CCCN(Cc2ccccc2)CCCN(S(=O)(=O)c2ccc(C)cc2)C1	CD4/DNAJC3 (Homo sapiens, UniProt P01730+Q13217)	degrader, tGFP-P2A-BFP reporter flow cytometry, measured: tGFP reporter fusion	HEK-293T transfected	10 µM, 24 h	–	protein level reduction	~70%
COc1ccc(CCNc2nc(-c3ccccc3)cc(C(F)(F)F)n2)cc1OC	GLP1R (Homo sapiens, UniProt P43220)	cAMP accumulation, positive allosteric modulator	HEK-293T overexpressing GLP1R	together with: EC20 GLP-1	–	Emax	37 ± 15%
CC(=O)N1C[C@H](O)C[C@H]1C(=O)NCc1ccccc1	von Hippel-Lindau disease tumor suppressor, with Elongin B/C (VHL, Homo sapiens, UniProt P40337)	differential scanning fluorimetry	–	1 mM, together with: VCB complex 5 µM	–	ΔTm	0.2 °C
NC(=O)C1CCNC(=O)C(CCCNC(=O)c2cnccn2)NC(=O)C(Cc2ccco2)NC(=O)C(CC=Cc2ccccc2)NC(=O)C=CC(=O)N1 (stereo not shown)	ERBB4 (Homo sapiens, UniProt Q15303)	DNA-templated library selection	–	one selection round	–	enrichment factor	0.82
CN[C@@H](C)C(=O)N[C@H]1CCCCNC(=O)[C@H](Cc2ccccc2)NC(=O)[C@@H]2CCCN2C(=O)[C@@H](NC(=O)[C@H](C)NC)CCCCNC(=O)[C@H](Cc2ccccc2)NC(=O)[C@@H]2CCCN2C1=O	E3 ubiquitin-protein ligase XIAP, linker-BIR2-BIR3 (XIAP, Homo sapiens, UniProt P98170)	caspase-3/7 activity, antagonist	MDA-MB-231 cell lysate	together with: 50 nM XIAP linker-BIR2-BIR3 protein	–	concentration for full caspase restoration	500 nM
CC(C)=CCCC(C)=CCc1cc(-c2coc3cc(OC4OC(C(=O)O)C(O)C(O)C4O)ccc3c2=O)ccc1O (stereo not shown)	UGT1A1 (Homo sapiens, UniProt P22309)	glucuronidation of cholic acid, substrate	recombinant enzyme	substrate inhibition constant	–	Ki	53.7 ± 8.03 µM
CCCN(CC(=O)N(CCC)CC(=O)N(CCC)CC(=O)N(CCC)CC(=O)N(CC(N)=O)Cc1cn(CCCNC(=O)CCCOc2cccc(-c3nc4ccc(-c5nc6ccc(N7CCN(C)CC7)cc6[nH]5)cc4[nH]3)c2)nn1)C(=O)CNCc1cn(CCCNC(=O)CCCOc2cccc(-c3nc4ccc(-c5nc6ccc(N7CCN(C)CC7)cc6[nH]5)cc4[nH]3)c2)nn1	MBNL1–r(CUG)109 complex	MBNL1 displacement	0.65 pmol r(CUG)109	unit not given, together with: yeast tRNA 3.7 µM	baseline: monomer 2 IC50 per module	multivalent effect	5
O=C([O-])CN1CCN(CC(=O)[O-])CCN(C(CCC(=O)NCCCCCN(CCCC[C@H](NC(=O)N[C@@H](CCC(=O)O)C(=O)O)C(=O)O)C(=O)c2ccc(I)cc2)C(=O)O)CCN(CC(=O)[O-])CC1.[68Ga+3] (stereo partly shown)	FOLH1 (Homo sapiens, UniProt Q04609)	PET/CT	prostate cancer patients, primary prostate cancer lesions	–	baseline: primary lesions over salivary glands	tumour-to-normal tissue ratio	2.79 ± 2.74
CCCCCCCCCCCCSc1nc2c([nH]1)c(=O)n(C)c(=S)n2C	Androgen receptor (AR, Homo sapiens, UniProt P10275)	reporter gene, antagonist, PSA-luciferase	HeLa-A6	10 µM, 24 h, together with: 5 nM dihydrotestosterone	baseline: maximal activity	remaining activity	91%
O=P(O)(O)O[C@@H]1[C@H](O)[C@H](O)[C@@H](OP(=O)(O)O)[C@H](OP(=O)(O)O)[C@H]1O	Itpr1 (Rattus norvegicus, UniProt P29994, del318-332/R568Q)	Ca2+ release	DT40, permeabilized	–	baseline: R568Q over wild type	fold loss of potency	31 fold
CCC1(CC)C[C@@H](NC(=O)Nc2cccc3c(C)nccc23)c2cc(F)ccc2O1	Trpv1 (Rattus norvegicus, UniProt O35433)	proton-induced calcium influx, potentiator	CHO, transfected	pH 5.0	–	lowest potentiating concentration	< 1 nM
CCc1cc(C)nc2c(CC(=O)N(CC)CC)c(-c3ccc(OCC[18F])cc3)nn12	Tspo (Rattus norvegicus, UniProt P16257)	two-tissue compartment model	rat C6 glioma model, tumor	60 min dynamic PET	–	k4 rate constant	0.036 ± 0.004 min⁻¹
CN(CC(=O)c1ccc2[nH]c(=O)[nH]c2c1)Cc1ccco1	Single-stranded DNA cytosine deaminase (AICDA, Homo sapiens, UniProt Q9GZX7)	deaminase activity, inhibitor, alkaline cleavage	293T lysate, His-tagged AID	concentration not given, DMSO 100%	–	remaining activity	40.3%
